Measurements from different studies.
Each line is one published result; not all experiments were run side by side.
Cell line: HEK293

CC(=O)Oc1ccccc1C(=O)[O][Pt]([NH2])([NH2])([Cl])([Cl])[O]C(=O)C(Cl)Cl
IC50 (cell growth or viability, MTT; 72 h): 0.09 µM

CC(C)c1cccc(C(C)C)c1-n1c2c([n+](-c3c(C(C)C)cccc3C(C)C)[c]1[Cu-][Cl])-c1cccc3cccc-2c13
IC50 (cell growth or viability, MTT; 72 h): 3.2 µM

CSc1ccc(-c2noc(-c3cccs3)c2C(F)(F)F)cc1
IC50 (cell growth or viability, MTT; 48 h): 103 µM

[Cl][Au-][c]1n(-c2c(C(c3ccccc3)c3ccccc3)cc(C(c3ccccc3)c3ccccc3)cc2C(c2ccccc2)c2ccccc2)c2c([n+]1-c1c(C(c3ccccc3)c3ccccc3)cc(C(c3ccccc3)c3ccccc3)cc1C(c1ccccc1)c1ccccc1)-c1cccc3cccc-2c13
IC50 (cell growth or viability, MTT; 72 h): > 50 µM

CCn1cc(/C=C/c2ccc3ccccc3[n+]2CC)c2ccccc21
IC50 (cell growth or viability, MTT; 24 h): 11.6 µM

N=C(N)NCCC[C@@H](NC(=O)[C@H](Cc1c[nH]cn1)NC(=O)[C@H](CO)NC(=O)[C@H](Cc1c[nH]c2ccccc12)NC(=O)[C@H](Cc1c[nH]cn1)NC(=O)[C@@H]1CCC(=O)N1)C(=O)N[C@@H](Cc1c[nH]c2ccccc12)C(=O)N[C@@H](Cc1ccc(O)cc1)C(=O)N1CCC[C@H]1C(=O)NCC(N)=O
IC50 (cell growth or viability, SRB): 0.0075 µM

O=C(/C=C/C=C/c1ccccc1)c1ccccc1OCc1cc(F)cc(F)c1
IC50 (cell growth or viability, MTT; 48 h): 37 µM

CN1CCCNC(=O)CCC(=O)NCCCN(C)CCCNc2cccc3c2C(=O)c2cccc(c2C3=O)NCCC1
IC50 (cell growth or viability, CCK-8; 48 h): > 20 µM

O=C1c2ccc3c4cccc5cccc(c6ccc(c2c36)C(=O)N1CCN1CCCCC1)c54
IC50 (cell growth or viability, SRB; 72 h): 247 µM

COC(=O)[C@@H]1CCCN1C(=O)[C@H](Cc1ccccc1)NC(=O)OC(C)(C)C
IC50 (cell growth or viability, SRB): 238 µM

Cc1cc(NC(=O)[C@H](O)c2cc(F)cc(F)c2)ccc1-c1cnc(N)c(C(=O)NC(C)C)c1
IC50 (Western blot, item: ATF4; 4 h, together with: 1 µM tunicamycin): 0.088 µM

COC(=O)[C@@H](NC(=O)[C@@H](NC(=O)[C@@H](NC(=O)OC(C)(C)C)C(C)C)C(C)C)C(C)C
IC50 (cell growth or viability, SRB): 145 µM

Cc1cccc2c1NC(=O)C21C2=C(COC2=O)NC2=C1C(=O)c1ccccc1C2=O (stereo not drawn)
IC50 (cell growth or viability, MTT; 72 h): 10 µM

CCCC(CCC)C(=O)[O][Pt]([NH2])([NH2])([Cl])([Cl])[O]C(=O)c1ccccc1OC(C)=O
IC50 (cell growth or viability, MTT; 72 h): 0.59 µM

CCCCCCCCCCCCCCCCCC(=O)N[C@@H](CCCN)C(=O)N[C@@H](CCCN)C(=O)N[C@@H](CCCN)C(=O)N[C@@H](CCCN)C(=O)N[C@@H](CCCN)C(N)=O
IC50 (cell growth or viability, resazurin): 20.3 µg/mL

CCCCCCCCCCCCOc1c(O)cc(C(=O)O[C@@H]2Cc3c(O)cc(O)cc3O[C@@H]2c2cc(O)c(O)c(O)c2)cc1O
IC50 (cell growth or viability, CCK-8; 24 h): > 150 µM

CCCCCCCCCCCCCCCCCC(=O)N[C@@H](CCCNC(=N)N)C(=O)N[C@@H](CCCNC(=N)N)C(=O)N[C@@H](CCCNC(=N)N)C(=O)N[C@@H](CCCNC(=N)N)C(=O)N[C@@H](CCCNC(=N)N)C(N)=O
IC50 (cell growth or viability, resazurin): > 32 µg/mL

CCCCCCCCCCCCCCCCOc1c(O)cc(C(=O)O[C@@H]2Cc3c(O)cc(O)cc3O[C@@H]2c2cc(O)c(O)c(O)c2)cc1O
IC50 (cell growth or viability, CCK-8; 24 h): > 150 µM

Excerpt of the above:
CC(=O)Oc1ccccc1C(=O)[O][Pt]([NH2])([NH2])([Cl])([Cl])[O]C(=O)C(Cl)Cl
IC50 (cell growth or viability, MTT; 72 h): 0.09 µM

CC(C)c1cccc(C(C)C)c1-n1c2c([n+](-c3c(C(C)C)cccc3C(C)C)[c]1[Cu-][Cl])-c1cccc3cccc-2c13
IC50 (cell growth or viability, MTT; 72 h): 3.2 µM
